Experimental data collected from several papers.
Compare with care: the assays were run in different laboratories. Values joined by “and” are separate records of one study, mostly repeats; a detail may differ. ± marks the error that the study gave.

| SMILES | assay | system | conditions | how to read | measurement | result |
| --- | --- | --- | --- | --- | --- | --- |
| O=C1NC2(CC2)COc2ncc(F)cc2[C@H]2COCCN2c2ccn3ncc1c3n2 |  | Sprague-Dawley rat, female, ovaries | oral, 10 mg/kg/day, 4 weeks |  | organ weight | 0.121 ± 0.014 g |
| CCN(CC)CCOc1ccc(-c2nnn(Cc3ccc(OC)cc3)c2N)cc1 |  | beagle dog | oral, at least 40 mg/kg |  | pulse pressure increase | ≤ 18% |
| CC[C@H](C)[C@H](NC(=O)[C@H](CCCCN)NC(=O)CNC(=O)[C@H](CC(C)C)NC(=O)[C@H](Cc1ccccc1)NC(=O)[C@H](CCCCN)NC(=O)[C@H](CO)NC(=O)[C@H](Cc1ccccc1)NC(=O)[C@H](Cc1c[nH]c2ccccc12)NC(=O)[C@H](CCC(N)=O)NC(=O)[C@@H](NC(=O)[C@H](Cc1ccccc1)NC(=O)CCCCCNC(=O)CN1CCN(CC(=O)O)CCN(CC(=O)O)CCN(CC(=O)O)CC1)C(C)C)C(=O)N[C@@H](CCC(=O)O)C(=O)N1CCC[C@H]1C(=O)N[C@@H](CC(=O)O)C(=O)N[C@H](C(=O)N[C@@H](CO)C(=O)N[C@@H](CCC(N)=O)C(=O)N[C@H](C(=O)N[C@@H](CCC(N)=O)C(=O)N[C@@H](CC(=O)O)C(=O)N1CCC[C@H]1C(=O)N[C@@H](CC(N)=O)C(=O)N[C@@H](CC(=O)O)C(=O)N[C@@H](CCC(N)=O)C(=O)N[C@@H](Cc1ccc(O)cc1)C(=O)N[C@@H](CCC(=O)O)C(=O)N1CCC[C@H]1C(=O)N[C@@H](Cc1ccccc1)C(=O)O)C(C)C)C(C)C [copper-64 labelled] |  | BALB/c mice, male, CT26 tumour-bearing, lung | 2 h, vehicle-treated |  | tissue uptake | 3.53 ± 1.5 %ID/g |
| CC[C@H](C)[C@H](N)C(=O)N[C@@H](CCCNC(=N)N)C(=O)N[C@H](C(=O)N[C@@H](Cc1c[nH]c2ccccc12)C(=O)N[C@@H](CCCCN)C(=O)N[C@@H](CCCCN)C(=O)N[C@H](C(=O)N[C@H](C(=O)N[C@@H](CCCNC(=N)N)C(=O)N[C@@H](CCCCN)C(=O)N[C@@H](CCSC)C(=O)N[C@@H](CCCCN)C(=O)N[C@@H](C)C(=O)N[C@H](C(=O)N[C@@H](Cc1ccc(O)cc1)C(=O)N[C@@H](Cc1c[nH]cn1)C(N)=O)[C@@H](C)CC)C(C)C)[C@@H](C)CC)C(C)C | reversed-phase UPLC | C18 column, TFA |  |  | elution acetonitrile content | 45.6% |
| O=C(c1cc(Cc2n[nH]c(=O)c3ccccc23)ccc1F)N1CC(CNC2CC2)C1 |  | Caco-2 |  |  | Papp | 10.8 ×10⁻⁶ cm/s |
| CCc1nn(C)c2nc(-c3ccc(C(=O)O)cc3)nc(NCc3ccccc3)c12 |  |  |  |  | logP | 5.29 |
| CC(C)[C@H]1NC(=O)[C@H](Cc2ccccc2)NC(=O)[C@@H](C(C)C)NC(=O)[C@@H](C)NC(=O)[C@H](CO)NC(=O)[C@@H](Cc2c(-c3ccc(-c4ccc5ccccc5c4)cc3)[nH]c3ccccc23)NC(=O)[C@@H](CO)NC1=O |  | female Sprague-Dawley rat, plasma | intravenous, 1 mg/kg, single dose |  | AUC(0-t) | 3350 ng·h/mL |
| CCCCCCCCCCCCCCCC(=O)N[C@@H](CCC(=O)NCCOCCOCCC(=O)NCCOCCOCCC(=O)NCCCC[C@H](NC(=O)[C@H](CC(=O)O)NC(=O)[C@H](CC(C)C)NC(=O)[C@H](Cc1ccc(O)cc1)NC(=O)[C@H](CCCCN)NC(=O)[C@H](CO)NC(=O)[C@H](Cc1ccc(O)cc1)NC(=O)[C@H](CC(=O)O)NC(=O)[C@H](CO)NC(=O)[C@@H](NC(=O)[C@H](Cc1ccccc1)NC(=O)[C@@H](NC(=O)CNC(=O)[C@H](CCC(N)=O)NC(=O)[C@@H](CO)NC(=O)[C@@H](N)Cc1c[nH]cn1)[C@@H](C)O)[C@@H](C)O)C(=O)N[C@@H](CCCNC(=N)N)C(=O)N[C@@H](CCCNC(=N)N)C(=O)N[C@@H](C)C(=O)N[C@@H](CCC(N)=O)C(=O)N[C@@H](CC(=O)O)C(=O)N[C@@H](Cc1ccccc1)C(=O)N[C@H](C(=O)N[C@@H](CCC(N)=O)C(=O)N[C@@H](Cc1c[nH]c2ccccc12)C(=O)N[C@@H](CC(C)C)C(=O)N[C@@H](CC(C)C)C(=O)N[C@@H](CC(N)=O)C(=O)N[C@H](C(=O)NCC(=O)NCC(=O)N1CCC[C@H]1C(=O)N[C@@H](CO)C(=O)N[C@@H](CO)C(=O)NCC(=O)N[C@@H](C)C(=O)N1CCC[C@H]1C(=O)N1CCC[C@H]1C(=O)N1CCC[C@H]1C(=O)N[C@@H](CO)C(N)=O)[C@@H](C)O)C(C)C)C(=O)O |  | Sprague-Dawley rat, male | subcutaneous, 100 µg/kg once daily, 14 days |  | total bilirubin | 1.4 ± 0.1 µmol/L |
| Cn1nc(NS(C)(=O)=O)c2c(Cl)ccc(-n3c([C@H](Cc4cc(F)cc(F)c4)NC(=O)Cn4nc(C(F)F)c5c4C(F)(F)[C@@H]4C[C@H]54)nc4nc(OCCC(F)(F)F)ccc4c3=O)c21 |  | human, plasma | oral, 625 mg single dose, powder in bottle, geometric mean |  | half-life | 66.3 h |
| CSCC[C@H](N)C(=O)N[C@@H](C)C(=O)N[C@@H](Cc1c[nH]c2ccccc12)C(=O)N[C@@H](Cc1c[nH]cn1)C(=O)N[C@@H](CC(=O)O)C(=O)N[C@@H](CC(=O)O)C(=O)N[C@@H](CCC(=O)O)C(=O)N[C@@H](CCC(=O)O)C(=O)N[C@@H](Cc1ccccc1)C(=O)N[C@@H](C)C(=O)N[C@@H](CCCNC(=N)N)C(=O)N[C@@H](CCCNC(=N)N)C(=O)N[C@@H](CCCNC(=N)N)C(=O)N[C@@H](CCCNC(=N)N)C(=O)NCCCCCC(=O)NCCCCC(NC(=O)CCCCCNC(=O)[C@H](CCCNC(=N)N)NC(=O)[C@H](CCCNC(=N)N)NC(=O)[C@H](CCCNC(=N)N)NC(=O)[C@H](CCCNC(=N)N)NC(=O)[C@H](C)NC(=O)[C@H](Cc1ccccc1)NC(=O)[C@H](CCC(=O)O)NC(=O)[C@H](CCC(=O)O)NC(=O)[C@H](CC(=O)O)NC(=O)[C@H](CC(=O)O)NC(=O)[C@H](Cc1c[nH]cn1)NC(=O)[C@H](Cc1c[nH]c2ccccc12)NC(=O)[C@H](C)NC(=O)[C@@H](N)CCSC)C(=O)NCCCCC(NC(=O)C(CCCCNC(=O)CCCCCNC(=O)[C@H](CCCNC(=N)N)NC(=O)[C@H](CCCNC(=N)N)NC(=O)[C@H](CCCNC(=N)N)NC(=O)[C@H](CCCNC(=N)N)NC(=O)[C@H](C)NC(=O)[C@H](Cc1ccccc1)NC(=O)[C@H](CCC(=O)O)NC(=O)[C@H](CCC(=O)O)NC(=O)[C@H](CC(=O)O)NC(=O)[C@H](CC(=O)O)NC(=O)[C@H](Cc1c[nH]cn1)NC(=O)[C@H](Cc1c[nH]c2ccccc12)NC(=O)[C@H](C)NC(=O)[C@@H](N)CCSC)NC(=O)CCCCCNC(=O)[C@H](CCCNC(=N)N)NC(=O)[C@H](CCCNC(=N)N)NC(=O)[C@H](CCCNC(=N)N)NC(=O)[C@H](CCCNC(=N)N)NC(=O)[C@H](C)NC(=O)[C@H](Cc1ccccc1)NC(=O)[C@H](CCC(=O)O)NC(=O)[C@H](CCC(=O)O)NC(=O)[C@H](CC(=O)O)NC(=O)[C@H](CC(=O)O)NC(=O)[C@H](Cc1c[nH]cn1)NC(=O)[C@H](Cc1c[nH]c2ccccc12)NC(=O)[C@H](C)NC(=O)[C@@H](N)CCSC)C(N)=O (stereo partly shown) |  | C57BL/6 mouse female, pancreas | dose not given, 3 h | relative to: total | mean tissue distribution | 1.14% |
| C=Cc1c(C)c2cc3nc(c(CC(=O)[O-])c4[n-]c(cc5nc(cc1[n-]2)C(C)=C5CC)c(C)c4C(=O)[O-])C(CCC(=O)[O-])C3C.[Cu+2].[Na+].[Na+].[Na+] (stereo not shown) |  | Wistar rat, male | oral, 1000 mg/kg daily, 28 days |  | serum alkaline phosphatase | 183 ± 33.6 U/L |
| CCCCCCCCCCCC(=O)C(C)C(=O)N1CCC[C@H]1C(=O)NC(C)(C)C(=O)NC(C)(C)C(=O)NC(C)(C)C(=O)N[C@](C)(CC)C(=O)NCCC(=O)N[C@@H](C)C(=O)N[C@](C)(CC)C(=O)N[C@@H](C)C(=O)N[C@@H](CC(C)C)C(=O)N[C@](C)(CC)C(=O)NCCC(=O)N[C@@H](C)C(=O)N[C@](C)(CC)C(=O)NCCC(=O)N[C@@H](C)C(=O)NC(C)(C)C(=O)NC(C)(C)C(=O)NC(C)(C)C(=O)N[C@@H](C)C(=O)N[C@@H](CC(=O)O)C(=O)O (stereo partly shown) | LC-MS | buffer with human neutrophil elastase | 40 µM, 540 min, pH 7.5, 37 °C | relative to: 0 h | remaining intact peptide | 54.9% and 54.6% and 57.3% |
| COc1cnc2cccc(N3CCc4c(cc(Cn5ccnc5)cc4-c4cn(C)nc4C(F)(F)F)C3=O)c2c1 |  | CD-1 mouse | intraperitoneal, 150 mg/kg once daily, day 4, dose-escalation tolerability | relative to: day 1 | body weight change | 6.9% |
| CC(C)C[C@H](NC(=O)[C@H](Cc1ccc(O)cc1)NC(=O)[C@H](Cc1c[nH]cn1)NC(=O)[C@H](CCCCN)NC(=O)[C@H](CC(C)C)NC(=O)[C@H](C)NC(=O)[C@H](CC(C)C)NC(=O)[C@H](CCCCN)NC(=O)CNC(=O)[C@@H](NC(=O)[C@@H](NC(=O)[C@H](CCCCN)NC(=O)[C@@H](NC(=O)[C@H](CCC(=O)O)NC(=O)[C@H](C)NC(=O)[C@H](CCCCN)NC(=O)[C@H](CCCCN)NC(=O)[C@H](CC(C)C)NC(=O)[C@H](CC(C)C)NC(=O)[C@@H](NC(=O)[C@H](CCCNC(=N)N)NC(=O)[C@H](Cc1c[nH]c2ccccc12)NC(=O)CN)[C@@H](C)O)C(C)C)[C@@H](C)O)C(C)C)C(N)=O |  | zebrafish embryos 4 hpf, E3 medium | 24 h |  | chronic toxic concentration | 5 µM |
| N#[11C]c1ccc(-c2csc(NN=C3CCCC3)n2)cc1 |  | C57BL/6 mice, male, thymus | intravenous, 3 MBq, 15 min |  | radioactivity uptake | 2.96 ± 1.17 %ID/g |
| CC(C)=CCC/C(C)=C/CCn1cc(CC(P(=O)(O)O)P(=O)(O)O)nn1 |  | mouse CD-1, bile | intravenous, 0.3 mg/kg, 2 h |  | concentration | 554 ± 267 ng/mL |

Repeated from above:
| SMILES | assay | system | conditions | how to read | measurement | result |
| --- | --- | --- | --- | --- | --- | --- |
| CC(C)[C@H]1NC(=O)[C@H](Cc2ccccc2)NC(=O)[C@@H](C(C)C)NC(=O)[C@@H](C)NC(=O)[C@H](CO)NC(=O)[C@@H](Cc2c(-c3ccc(-c4ccc5ccccc5c4)cc3)[nH]c3ccccc23)NC(=O)[C@@H](CO)NC1=O |  | female Sprague-Dawley rat, plasma | intravenous, 1 mg/kg, single dose |  | AUC(0-t) | 3350 ng·h/mL |
| CCCCCCCCCCCCCCCC(=O)N[C@@H](CCC(=O)NCCOCCOCCC(=O)NCCOCCOCCC(=O)NCCCC[C@H](NC(=O)[C@H](CC(=O)O)NC(=O)[C@H](CC(C)C)NC(=O)[C@H](Cc1ccc(O)cc1)NC(=O)[C@H](CCCCN)NC(=O)[C@H](CO)NC(=O)[C@H](Cc1ccc(O)cc1)NC(=O)[C@H](CC(=O)O)NC(=O)[C@H](CO)NC(=O)[C@@H](NC(=O)[C@H](Cc1ccccc1)NC(=O)[C@@H](NC(=O)CNC(=O)[C@H](CCC(N)=O)NC(=O)[C@@H](CO)NC(=O)[C@@H](N)Cc1c[nH]cn1)[C@@H](C)O)[C@@H](C)O)C(=O)N[C@@H](CCCNC(=N)N)C(=O)N[C@@H](CCCNC(=N)N)C(=O)N[C@@H](C)C(=O)N[C@@H](CCC(N)=O)C(=O)N[C@@H](CC(=O)O)C(=O)N[C@@H](Cc1ccccc1)C(=O)N[C@H](C(=O)N[C@@H](CCC(N)=O)C(=O)N[C@@H](Cc1c[nH]c2ccccc12)C(=O)N[C@@H](CC(C)C)C(=O)N[C@@H](CC(C)C)C(=O)N[C@@H](CC(N)=O)C(=O)N[C@H](C(=O)NCC(=O)NCC(=O)N1CCC[C@H]1C(=O)N[C@@H](CO)C(=O)N[C@@H](CO)C(=O)NCC(=O)N[C@@H](C)C(=O)N1CCC[C@H]1C(=O)N1CCC[C@H]1C(=O)N1CCC[C@H]1C(=O)N[C@@H](CO)C(N)=O)[C@@H](C)O)C(C)C)C(=O)O |  | Sprague-Dawley rat, male | subcutaneous, 100 µg/kg once daily, 14 days |  | total bilirubin | 1.4 ± 0.1 µmol/L |
